Experimental data from different studies.
Compare with care: the assays were run in different laboratories. ± gives the spread as reported.

Compound = Nc1ncnc2c1ncn2C[C@H](O)CO; target or system = respiratory syncytial virus; assay = viral replication; test system = HeLa; quantity = EC50; result = > 250000 nM
Compound = CCOC(=O)Nc1ccc(NCc2ccc(F)cc2)nc1N; target or system = Plasmodium falciparum; test system = W2; quantity = IC50; result = 2000 nM
Compound = CC(=O)c1cc(O)c2ccccc2c1O; target or system = Dengue virus 2; assay = viral replication; test system = replicon; quantity = EC50; result = 5000 nM
Compound = C[C@@H]1CN(c2ccnc3ccc(Sc4ccc(Oc5ccccc5)cc4)cc23)C[C@H](C)N1; target or system = Plasmodium falciparum; assay = parasite growth, SYBR Green; test system = 3D7 wild type; setting = 72 h; quantity = EC50; result = 600 ± 45 nM
Compound = C(#Cc1c[nH]c2nccc(-c3ccncc3)c12)c1cccnc1; target or system = dengue virus 2; assay = viral replication; test system = Huh-7; quantity = EC50; result = 1870 ± 470 nM
Compound = NC(=O)c1ncn([C@@H]2O[C@H](CO)[C@@H](O)[C@H]2O)n1; target or system = Zika virus; assay = viral replication; test system = BHK-21, ZIKV; setting = 72 h; quantity = EC50; result = 18000 nM
Compound = O[C@@H]1[C@H](O)[C@@H]2C[C@@H]2[C@H]1n1cnc2c(NC(C3CC3)C3CC3)nc(Cl)nc21; target or system = respiratory syncytial virus; assay = viral replication, neutral red; test system = MA104, A2; quantity = EC50; result = 32000 nM
Compound = CC(C)[C@H](O)C(=O)N[C@@H](C)C(=O)N[C@@H]1C(=O)N(C)CCc2ccccc21; target or system = dengue virus 2; assay = viral replication, luciferase reporter virus; test system = Huh-7.5.1; quantity = EC50; result = 3400 nM
Compound = CCN(CC)CCO[C@H]1CC[C@@]2(C)C(=CC[C@@H]3[C@@H]2CC[C@]2(C)C(=O)CC[C@@H]32)C1; target or system = human rotavirus; assay = viral replication, focus reduction; test system = MA104, DS-1; setting = pretreated 20 h before infection; quantity = EC50; result = 5840 nM
Compound = C(#Cc1c[nH]c2nccc(-c3cccs3)c12)c1cccnc1; target or system = dengue virus 2; assay = viral replication; test system = Huh-7; quantity = EC50; result = 5590 ± 460 nM
Compound = CC(c1ccc(Cl)c(Cl)c1)c1nn2c(-c3ccccc3F)nnc2s1 (stereo not drawn); target or system = Plasmodium falciparum; assay = parasite growth, SYBR Green; test system = 3D7 wild type; setting = 72 h; quantity = EC50; result = 50.2 ± 5.2 nM
Compound = NC(=NCc1ccccc1)NC(=O)c1nc(Cl)c(N)nc1N; target or system = Plasmodium falciparum; test system = HB3; quantity = IC50; result = 1000 nM
Compound = C[C@H]1CN(c2n[nH]c3nc(N[C@H]4CC[C@H](NS(=O)(=O)CCC(F)(F)F)CC4)ncc23)CCO1; target or system = Leishmania donovani; test system = promastigotes, LdBOB CRK3 overexpressing; quantity = EC50; result = 9.4 ± 0.04 nM
Compound = c1nc2nc3c(c(Nc4ccc5c(c4)CCC5)n2n1)CCC3; target or system = Plasmodium falciparum; assay = parasite growth, SYBR Green; test system = 3D7 wild type; setting = 72 h; quantity = EC50; result = 354 ± 110 nM
Compound = C(#Cc1c[nH]c2nccc(-c3cccnc3)c12)c1cccnc1; target or system = dengue virus 2; assay = viral replication; test system = Huh-7; quantity = EC50; result = 3200 ± 470 nM
Compound = CCc1nc2nc(C)cc(Nc3cc(C)cc(C)c3)n2n1; target or system = Plasmodium falciparum; assay = parasite growth; test system = Dd2; quantity = EC50; result = 102 ± 28 nM
Compound = CC[C@H](C)[C@@H]1NC(=O)[C@@H]2CCCN2C(=O)[C@H](CC(C)C)NC(=O)[C@H](CC(C)C)NC(=O)CNC(=O)[C@@H](NC(=O)[C@@H](NC(=O)[C@H](CC(=O)O)NC(=O)CNC(=O)[C@@H](NC(=O)[C@H](C)NC(=O)CNC(=O)[C@H](CCCCN)NC(=O)[C@H](CC(C)C)NC(=O)[C@H](CC(C)C)NC(=O)[C@H](CCCCN)NC(=O)CNC(=O)[C@@H](NC(=O)[C@@H](N)CC(C)C)C(C)C)C(C)C)C(C)C)CSSC[C@@H](C(=O)O)NC1=O; assay = RNA-seq, measured: Snx20; test system = mouse, traumatic brain injury model, frontal cortex and hippocampus; setting = dose not given; how to read = baseline: TBI alone; quantity = log2 fold change; result = -2.36
Compound = COc1cc(-c2ccnc3[nH]cc(C#Cc4cccnc4)c23)ccc1F; target or system = dengue virus 2; assay = viral replication; test system = Huh-7; quantity = EC50; result = 2520 ± 470 nM
Compound = CSc1nc2nc(C)c(Cc3cccc(C(F)(F)F)c3)c(C)n2n1; target or system = Plasmodium falciparum; assay = parasite growth, SYBR Green; test system = 3D7 wild type; setting = 72 h; quantity = EC50; result = 471 ± 87 nM
Compound = COc1ccc(-c2ncnc3[nH]nc(C#Cc4cccnc4)c23)cc1OC; target or system = dengue virus 2; assay = viral replication; test system = Huh-7; quantity = EC50; result = > 10000 nM
Compound = COc1ccc(NC(=O)N2CCCCN3[C@H](CN(C)C)[C@H](c4ccc(C#Cc5ccccc5)cc4)[C@@H]3C2)cc1; target or system = Cryptosporidium parvum; assay = luciferase; test system = HCT-8, parent strain; setting = 48 h; quantity = EC50; result = 29 nM
Compound = CO[C@H]1C[C@@H]2CC[C@@H](C)[C@@](O)(O2)C(=O)C(=O)N2CCCC[C@H]2C(=O)O[C@H]([C@H](C)C[C@@H]2CC[C@@H](OC(=O)NCCOCCOCCOCCOCCOCCOCCOCCOCCC(=O)N3CCc4cc(Cn5nc(-c6ccc7oc(N)nc7c6)c6c(N)ncnc65)ccc4C3)[C@H](OC)C2)C[C@@H](O)[C@H](C)/C=C(\C)[C@@H](O)[C@@H](OC)C(=O)[C@H](C)C[C@H](C)/C=C/C=C/C=C/1C; assay = dose-escalation trial; test system = patients with advanced solid tumours; setting = intravenous, 1.6 mg/3 mg weekly, any grade; quantity = decreased appetite leading to dose reduction; result = 0%
Compound = Cc1ccc(NC(=O)c2cc(S(=O)(=O)NC(C)(C)C)ccc2C)nc1; target or system = Plasmodium falciparum; assay = parasite growth, SYBR Green; test system = 3D7 DHODH E182D; setting = 72 h; quantity = EC50; result = 5560 ± 1100 nM
Compound = O=c1ccn([C@@H]2O[C@H](CO)[C@@H](O)[C@H]2O)c(=S)[nH]1; target or system = Zika virus; assay = viral replication; test system = BHK-21, ZIKV; quantity = EC50; result = 5000 nM

Some of these lines once more:
Compound = CCOC(=O)Nc1ccc(NCc2ccc(F)cc2)nc1N; target or system = Plasmodium falciparum; test system = W2; quantity = IC50; result = 2000 nM
Compound = CC(=O)c1cc(O)c2ccccc2c1O; target or system = Dengue virus 2; assay = viral replication; test system = replicon; quantity = EC50; result = 5000 nM
Compound = C[C@@H]1CN(c2ccnc3ccc(Sc4ccc(Oc5ccccc5)cc4)cc23)C[C@H](C)N1; target or system = Plasmodium falciparum; assay = parasite growth, SYBR Green; test system = 3D7 wild type; setting = 72 h; quantity = EC50; result = 600 ± 45 nM
